Experimental data pooled from the literature.
A part holds a random share of what one study measured. Positions count from the first letter of the parent shown.
Chain of UniProt P08588 (whole entry, looked up): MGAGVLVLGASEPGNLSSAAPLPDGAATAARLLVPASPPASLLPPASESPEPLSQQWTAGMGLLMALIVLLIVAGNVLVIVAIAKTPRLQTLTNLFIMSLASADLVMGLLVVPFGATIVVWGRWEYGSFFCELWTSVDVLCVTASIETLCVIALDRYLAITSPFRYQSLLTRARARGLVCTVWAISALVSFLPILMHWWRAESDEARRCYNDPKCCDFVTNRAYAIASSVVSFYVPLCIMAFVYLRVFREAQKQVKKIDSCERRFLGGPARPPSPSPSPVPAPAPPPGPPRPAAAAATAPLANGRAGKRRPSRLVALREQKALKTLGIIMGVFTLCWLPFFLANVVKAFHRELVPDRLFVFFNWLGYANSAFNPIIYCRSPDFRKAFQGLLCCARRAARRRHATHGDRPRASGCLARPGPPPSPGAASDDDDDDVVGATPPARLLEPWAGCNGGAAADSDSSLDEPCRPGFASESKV

Sample 1
Target: Probable WRKY transcription factor 33, C-terminal DNA-binding domain (WRKY33, Arabidopsis thaliana, UniProt Q8S8P5, residues 346-449)
Method: DNA-protein interaction ELISA
Molecule type: double-stranded DNA, one strand shown
Matrix: in vitro, bacterial lysate
Concentration: not given
Setting: whole dsDNA probe, crude lysate protein
Relative to: highest signal in screen
Direction: higher = stronger binding
Endpoint: relative absorbance
Residues (chain): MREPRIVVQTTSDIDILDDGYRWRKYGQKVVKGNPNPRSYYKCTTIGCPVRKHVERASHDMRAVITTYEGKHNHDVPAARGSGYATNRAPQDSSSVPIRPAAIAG
AAAAAACGCAACTCCGGATGTGGGGTAAAA: 42.1 % of maximum
AAAAAACTGGTGTATCTCCTCAATTAAAAA: 34 % of maximum
AAAAAACGCATCATAGCTACGCCCCAAAAA: 31.4 % of maximum
AAAAAAGACACTCTAATTCCGTAGGCAAAA: 29.8 % of maximum
AAAAAAATCCATATTATTGCTACCCGAAAA: 27 % of maximum
AAAAAACGTTGAACCTGGGCCTCAACAAAA: 99.6 % of maximum
AAAAAACCGTCTTATCTCTCGTCCCTAAAA: 58.1 % of maximum
AAAAAAGTCCGCCCTTAATTCATATTAAAA: 98.9 % of maximum

Sample 2
Target: Sal-like protein 4, full length isoform B (SALL4, Homo sapiens, UniProt Q9UJQ4-2, residues 1-616)
Method: universal PBM
Molecule type: double-stranded DNA, one strand shown
Matrix: in vitro
Concentration: not given
Setting: 8-mer, flanks averaged, mean of replicates
Direction: higher = stronger binding
Endpoint: E-score
Target sequence (chain): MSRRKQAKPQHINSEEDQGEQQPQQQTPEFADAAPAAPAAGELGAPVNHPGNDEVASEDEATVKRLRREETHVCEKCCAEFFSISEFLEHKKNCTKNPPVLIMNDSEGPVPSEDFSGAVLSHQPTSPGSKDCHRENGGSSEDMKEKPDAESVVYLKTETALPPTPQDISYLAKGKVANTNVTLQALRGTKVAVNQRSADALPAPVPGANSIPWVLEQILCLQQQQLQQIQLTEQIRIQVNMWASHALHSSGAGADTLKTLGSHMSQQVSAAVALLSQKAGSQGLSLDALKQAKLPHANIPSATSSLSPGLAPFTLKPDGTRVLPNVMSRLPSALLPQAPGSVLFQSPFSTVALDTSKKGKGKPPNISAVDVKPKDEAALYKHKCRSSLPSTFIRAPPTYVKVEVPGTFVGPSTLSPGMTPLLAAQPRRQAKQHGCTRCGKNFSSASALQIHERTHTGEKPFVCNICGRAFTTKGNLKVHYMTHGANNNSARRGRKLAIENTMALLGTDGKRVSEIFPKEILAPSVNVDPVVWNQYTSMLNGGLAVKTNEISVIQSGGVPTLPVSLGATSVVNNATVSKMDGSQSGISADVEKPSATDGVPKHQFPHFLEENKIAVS
CTAACCGC: -0.13
AAAAAATC: 0.257
AGGAATCG: -0.132
AAGGGTAT: 0.21
CGAGGGAG: -0.219
GAGCCAGA: -0.196
ATTCGACC: -0.0856
AGTCCAGA: 0.00865

Single results of other studies
P1: viral docking peptide; CKVKRKLFGSENI; partner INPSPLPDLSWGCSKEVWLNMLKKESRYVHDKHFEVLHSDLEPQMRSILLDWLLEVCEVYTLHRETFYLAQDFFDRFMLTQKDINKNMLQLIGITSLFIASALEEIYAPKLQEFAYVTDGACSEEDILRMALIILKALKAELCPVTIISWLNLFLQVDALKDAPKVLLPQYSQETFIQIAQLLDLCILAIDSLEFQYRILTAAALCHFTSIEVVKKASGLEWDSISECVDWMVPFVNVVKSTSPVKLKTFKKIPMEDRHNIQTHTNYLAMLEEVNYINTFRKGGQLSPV
PhoQ, residues 284 288 289 292 302 303 SLANIV  fold induction (PhoP, residues 12 14 15 18 19 STWGI (Escherichia coli, UniProt P23836); Sort-seq, measured: YFP reporter; E. coli; PhoQ-PhoP variant library, together with: 10 µM Mg2+; relative to: high Mg2+ state, higher = stronger signaling): 7.27
Cn1c(N2CCNCC2)cc(=O)n(C)c1=O  IC50 (Beta-1 adrenergic receptor (ADRB1, Homo sapiens, UniProt P08588); antagonist): ≥ 100 µM
P1 F8A  normalised enrichment score (CCNE2, cyclin fold, Cln2 fusion (human); yeast growth competition, sequencing; yeast; strong parent motif; relative to: not given, higher = stronger binding): -0.272

For quick reference, copied from above (sample 2):
CTAACCGC: -0.13
GAGCCAGA: -0.196
